Measured values gathered from unrelated publications.
Each numbered part is a random draw from the data of one study; scales do not carry over between parts. “And” joins repeats or separate records; there may be more than shown.
Sequence of UniProt P10721 (whole entry, looked up): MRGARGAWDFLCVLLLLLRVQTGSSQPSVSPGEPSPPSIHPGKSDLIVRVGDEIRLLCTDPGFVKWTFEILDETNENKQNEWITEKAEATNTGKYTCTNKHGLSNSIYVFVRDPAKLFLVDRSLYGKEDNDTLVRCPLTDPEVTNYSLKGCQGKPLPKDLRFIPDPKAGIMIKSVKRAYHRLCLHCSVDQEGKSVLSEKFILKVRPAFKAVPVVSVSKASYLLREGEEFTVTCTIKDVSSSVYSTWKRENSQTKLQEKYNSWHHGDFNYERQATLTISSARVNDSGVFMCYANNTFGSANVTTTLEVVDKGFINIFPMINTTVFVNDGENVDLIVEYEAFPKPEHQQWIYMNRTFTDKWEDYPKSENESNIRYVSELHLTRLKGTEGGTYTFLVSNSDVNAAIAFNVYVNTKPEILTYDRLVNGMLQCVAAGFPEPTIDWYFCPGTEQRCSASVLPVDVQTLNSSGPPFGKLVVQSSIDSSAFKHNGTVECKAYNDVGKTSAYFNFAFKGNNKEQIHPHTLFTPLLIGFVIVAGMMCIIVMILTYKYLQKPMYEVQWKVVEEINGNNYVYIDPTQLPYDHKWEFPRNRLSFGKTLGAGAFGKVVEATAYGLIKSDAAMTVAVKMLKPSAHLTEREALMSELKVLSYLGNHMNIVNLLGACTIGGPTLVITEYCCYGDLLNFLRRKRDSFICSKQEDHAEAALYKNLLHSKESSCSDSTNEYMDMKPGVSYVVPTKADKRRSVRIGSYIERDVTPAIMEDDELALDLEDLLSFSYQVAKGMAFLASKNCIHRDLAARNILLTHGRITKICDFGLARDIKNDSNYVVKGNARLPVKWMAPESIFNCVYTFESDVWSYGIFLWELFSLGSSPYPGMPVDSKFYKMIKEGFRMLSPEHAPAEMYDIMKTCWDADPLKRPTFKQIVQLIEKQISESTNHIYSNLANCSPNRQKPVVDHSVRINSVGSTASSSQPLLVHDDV
Sequence of UniProt Q86UE8 (whole entry, looked up): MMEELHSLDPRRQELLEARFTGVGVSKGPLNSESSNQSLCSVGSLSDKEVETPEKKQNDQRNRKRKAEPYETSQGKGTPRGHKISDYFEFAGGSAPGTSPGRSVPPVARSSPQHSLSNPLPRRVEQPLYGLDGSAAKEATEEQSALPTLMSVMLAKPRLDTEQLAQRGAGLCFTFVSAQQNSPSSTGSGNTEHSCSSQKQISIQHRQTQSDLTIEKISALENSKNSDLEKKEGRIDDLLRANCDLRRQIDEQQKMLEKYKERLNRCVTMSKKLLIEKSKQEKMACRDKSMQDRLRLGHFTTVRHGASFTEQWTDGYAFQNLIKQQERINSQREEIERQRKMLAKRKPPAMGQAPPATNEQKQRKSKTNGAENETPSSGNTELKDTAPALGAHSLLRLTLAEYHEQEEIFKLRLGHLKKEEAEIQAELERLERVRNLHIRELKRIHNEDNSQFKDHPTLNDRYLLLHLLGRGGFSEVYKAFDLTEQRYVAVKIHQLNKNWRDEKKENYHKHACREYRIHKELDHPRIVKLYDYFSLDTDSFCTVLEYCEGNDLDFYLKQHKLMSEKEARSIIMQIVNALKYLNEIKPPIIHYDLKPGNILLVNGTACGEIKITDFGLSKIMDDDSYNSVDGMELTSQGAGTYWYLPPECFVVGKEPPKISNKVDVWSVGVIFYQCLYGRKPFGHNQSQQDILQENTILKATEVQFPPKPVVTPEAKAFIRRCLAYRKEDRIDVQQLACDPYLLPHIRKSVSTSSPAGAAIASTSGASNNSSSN
Sequence of UniProt O75747 (whole entry, looked up): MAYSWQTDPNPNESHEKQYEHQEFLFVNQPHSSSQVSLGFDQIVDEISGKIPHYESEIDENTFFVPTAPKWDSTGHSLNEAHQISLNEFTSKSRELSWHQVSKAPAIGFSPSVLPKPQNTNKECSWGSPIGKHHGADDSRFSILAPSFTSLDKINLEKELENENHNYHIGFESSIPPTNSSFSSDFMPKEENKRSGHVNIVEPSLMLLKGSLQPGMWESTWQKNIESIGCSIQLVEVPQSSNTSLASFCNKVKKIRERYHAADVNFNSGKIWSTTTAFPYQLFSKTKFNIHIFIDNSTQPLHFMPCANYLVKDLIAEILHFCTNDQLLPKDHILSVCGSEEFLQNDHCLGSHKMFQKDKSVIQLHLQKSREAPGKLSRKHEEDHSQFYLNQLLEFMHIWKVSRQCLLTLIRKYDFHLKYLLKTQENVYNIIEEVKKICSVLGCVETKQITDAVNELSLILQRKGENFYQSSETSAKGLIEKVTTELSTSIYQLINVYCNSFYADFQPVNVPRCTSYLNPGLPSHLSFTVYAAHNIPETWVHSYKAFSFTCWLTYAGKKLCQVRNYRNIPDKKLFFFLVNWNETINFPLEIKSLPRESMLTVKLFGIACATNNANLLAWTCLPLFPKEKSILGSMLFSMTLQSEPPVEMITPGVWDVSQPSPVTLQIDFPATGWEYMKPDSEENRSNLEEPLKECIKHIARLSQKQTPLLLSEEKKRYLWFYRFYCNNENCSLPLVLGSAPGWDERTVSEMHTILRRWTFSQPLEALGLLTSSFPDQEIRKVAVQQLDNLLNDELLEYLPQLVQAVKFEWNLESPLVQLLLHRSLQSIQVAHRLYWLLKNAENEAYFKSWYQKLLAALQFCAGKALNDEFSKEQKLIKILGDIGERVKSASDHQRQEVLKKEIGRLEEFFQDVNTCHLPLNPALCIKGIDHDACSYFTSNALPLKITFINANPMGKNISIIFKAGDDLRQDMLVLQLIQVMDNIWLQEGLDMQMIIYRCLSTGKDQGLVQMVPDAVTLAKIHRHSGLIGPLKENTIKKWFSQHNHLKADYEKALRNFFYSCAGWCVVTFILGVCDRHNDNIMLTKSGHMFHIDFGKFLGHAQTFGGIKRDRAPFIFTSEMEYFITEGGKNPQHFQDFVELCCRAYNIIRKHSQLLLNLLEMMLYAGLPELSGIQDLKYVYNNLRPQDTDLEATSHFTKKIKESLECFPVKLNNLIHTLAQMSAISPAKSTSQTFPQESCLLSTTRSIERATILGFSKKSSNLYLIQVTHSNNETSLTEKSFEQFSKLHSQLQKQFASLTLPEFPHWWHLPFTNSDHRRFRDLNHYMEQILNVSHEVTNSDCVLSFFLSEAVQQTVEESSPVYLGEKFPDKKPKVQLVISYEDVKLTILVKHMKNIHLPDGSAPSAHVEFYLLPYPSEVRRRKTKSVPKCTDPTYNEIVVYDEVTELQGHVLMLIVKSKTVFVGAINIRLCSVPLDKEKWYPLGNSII
Sequence of UniProt Q8IVW4 (whole entry, looked up): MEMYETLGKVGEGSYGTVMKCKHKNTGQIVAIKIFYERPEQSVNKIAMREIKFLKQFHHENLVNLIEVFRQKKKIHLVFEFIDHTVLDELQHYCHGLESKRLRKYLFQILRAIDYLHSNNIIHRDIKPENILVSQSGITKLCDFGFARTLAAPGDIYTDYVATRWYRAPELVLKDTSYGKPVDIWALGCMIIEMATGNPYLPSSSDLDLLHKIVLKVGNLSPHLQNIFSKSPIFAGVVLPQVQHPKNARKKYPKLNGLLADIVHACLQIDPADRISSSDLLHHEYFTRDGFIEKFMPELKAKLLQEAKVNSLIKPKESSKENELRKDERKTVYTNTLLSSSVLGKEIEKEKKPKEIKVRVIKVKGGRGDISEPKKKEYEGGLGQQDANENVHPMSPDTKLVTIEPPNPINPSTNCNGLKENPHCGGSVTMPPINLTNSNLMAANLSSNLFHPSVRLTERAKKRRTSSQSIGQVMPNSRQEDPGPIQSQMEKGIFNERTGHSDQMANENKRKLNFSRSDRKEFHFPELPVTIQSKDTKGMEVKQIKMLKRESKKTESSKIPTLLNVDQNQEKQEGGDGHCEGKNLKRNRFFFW
Sequence of UniProt O60331 (whole entry, looked up): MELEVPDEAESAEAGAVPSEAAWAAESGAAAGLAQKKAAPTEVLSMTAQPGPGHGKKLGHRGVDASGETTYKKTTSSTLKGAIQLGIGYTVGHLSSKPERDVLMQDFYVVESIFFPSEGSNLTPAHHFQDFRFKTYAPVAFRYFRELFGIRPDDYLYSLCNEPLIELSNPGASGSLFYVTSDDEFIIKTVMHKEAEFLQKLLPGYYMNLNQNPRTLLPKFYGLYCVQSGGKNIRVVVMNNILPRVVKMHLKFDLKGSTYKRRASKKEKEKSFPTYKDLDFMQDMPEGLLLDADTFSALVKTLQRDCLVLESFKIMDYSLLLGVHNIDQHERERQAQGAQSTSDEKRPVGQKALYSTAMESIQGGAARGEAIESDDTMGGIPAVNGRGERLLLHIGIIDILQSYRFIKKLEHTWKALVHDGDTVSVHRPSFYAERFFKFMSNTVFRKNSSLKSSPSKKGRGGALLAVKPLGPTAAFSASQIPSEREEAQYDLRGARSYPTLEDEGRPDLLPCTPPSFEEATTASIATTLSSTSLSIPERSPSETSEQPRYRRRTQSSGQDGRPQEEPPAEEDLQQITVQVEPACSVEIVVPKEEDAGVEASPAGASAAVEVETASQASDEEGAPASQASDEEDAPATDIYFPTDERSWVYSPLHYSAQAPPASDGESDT
Sequence of UniProt Q9UEE5 (whole entry, looked up): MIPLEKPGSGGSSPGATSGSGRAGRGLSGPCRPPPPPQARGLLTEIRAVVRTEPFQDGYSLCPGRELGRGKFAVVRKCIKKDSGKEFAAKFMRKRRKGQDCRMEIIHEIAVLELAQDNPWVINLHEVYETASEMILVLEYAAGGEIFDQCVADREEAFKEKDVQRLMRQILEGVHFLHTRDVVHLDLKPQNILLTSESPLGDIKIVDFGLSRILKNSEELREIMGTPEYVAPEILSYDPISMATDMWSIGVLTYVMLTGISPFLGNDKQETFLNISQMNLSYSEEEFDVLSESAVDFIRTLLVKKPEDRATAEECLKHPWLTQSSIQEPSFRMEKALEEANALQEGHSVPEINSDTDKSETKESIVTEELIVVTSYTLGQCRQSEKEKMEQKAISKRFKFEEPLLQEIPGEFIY

Block 1
Host: human
Sample: microsomes or S9
Concentration: 2 µM
Time: 0.5 h
SMILES	remaining compound [%]
CC(C)(C)NC(=O)Cn1nc2c(-c3nc(-c4cccc(F)c4)no3)cccn2c1=O	> 100
CC1CN(C2c3ccccc3-c3ccccc32)CC(C)(C)O1 (stereo not drawn)	45.7
Cc1cc(N2CCCCC2)nc(N2CCN(S(=O)(=O)c3ccc4cccc5c4c3CC5)CC2)n1	3.16
O=C(CN1C(=O)CC2(CCCC2)C1=O)Nc1cccc(-c2nc[nH]n2)c1	61.8
Cc1nc2cc(NC(=O)c3cccc4cn[nH]c34)ccc2o1	29.3
COC(=O)CCNC(=O)CCc1nnc(O)[nH]c1=O	93.3
COc1cc(=O)n(-c2ccccc2)cc1C(=O)N1CC(S(=O)(=O)c2nccn2C)C1	> 99

Block 2
Organism: Sarcocystis neurona
Read-out: parasite activity
Concentration: 10 µM
Time: 96 h
SMILES	activity class
CC[C@H]1OC(=O)[C@H](C)[C@@H](O[C@H]2C[C@@](C)(OC)[C@@H](O)[C@H](C)O2)[C@H](C)[C@@H](O[C@@H]2O[C@H](C)C[C@H](N(C)C)[C@H]2O)[C@](C)(O)C[C@@H](C)CN(C)[C@H](C)[C@@H](O)[C@]1(C)O	inactive
O=C(c1ccc(OCCN2CCCCC2)cc1)c1c(-c2ccc(O)cc2)sc2cc(O)ccc12	inactive
Nc1ccc(O)c(C(=O)O)c1	inactive
OC(Cn1cncn1)(Cn1cncn1)c1ccc(F)cc1F	inactive
CC[C@H]1OC(=O)[C@H](C)C(=O)[C@H](C)[C@@H](O[C@@H]2O[C@H](C)C[C@H](N(C)C)[C@H]2O)[C@](C)(OC)C[C@@H](C)C(=O)[C@H](C)[C@H]2N(CCCCn3cnc(-c4cccnc4)c3)C(=O)O[C@]12C	inactive
CC(=O)/N=c1/sc(S(N)(=O)=O)nn1C	inactive
COC(=O)C1=C(C)NC(C)=C(C(=O)OCC(C)C)C1c1ccccc1[N+](=O)[O-] (stereo not drawn)	inactive
CC(=O)O[C@]1(C(C)=O)CC[C@H]2[C@@H]3C=C(C)C4=CC(=O)CC[C@]4(C)[C@H]3CC[C@@]21C	inactive
CC(=O)[C@@]1(O)CC[C@H]2[C@@H]3C[C@H](C)C4=CC(=O)C=C[C@]4(C)[C@@]3(F)[C@@H](O)C[C@@]21C	inactive

Block 3
SMILES: Cc1cc(-n2nc(Cc3cc(F)cc(C(F)(F)F)c3)nc2C)ccc1C(N)=O
Technique: competition with immobilised ligand
Concentration: 1 µM
target	test	remaining binding
PRKAA1 (Homo sapiens, UniProt Q13131)	cell-free assay	100%
PIK3C2G (Homo sapiens, UniProt O75747)	cell-free assay	100%
PIP5K1C (Homo sapiens, UniProt O60331)	cell-free assay	66%
STK32B (Homo sapiens, UniProt Q9NY57)	cell-free assay	100%
MYLK3 (Homo sapiens, UniProt Q32MK0)	cell-free assay	92%
FGFR3 (Homo sapiens, UniProt P22607)	cell-free assay	100%
FRK (Homo sapiens, UniProt P42685)	cell-free assay	100%
TLK2 (Homo sapiens, UniProt Q86UE8)	cell-free assay	100%
CDKL3 (Homo sapiens, UniProt Q8IVW4)	cell-free assay	83%
EPHA4 (Homo sapiens, UniProt P54764)	cell-free assay	96%
Mast/stem cell growth factor receptor Kit, autoinhibited (KIT, Homo sapiens, UniProt P10721)	cell-free assay	100%
Tyrosine-protein kinase ABL1, non-phosphorylated (ABL1, Homo sapiens, UniProt P00519, F317I)	binding	100%
STK17A (Homo sapiens, UniProt Q9UEE5)	cell-free assay	100%

Mixed results
Compound	cell line	test	setting	how to read	endpoint	result
CC(C)C[C@@H]1NC(=O)[C@@H](N(C)C(=O)[C@H](CC2CCC2)NC(=O)[C@@H]2C[C@@H](F)CN2C(=O)C2(C(F)(F)F)CC(F)(F)C2)CCCCNC(=O)C2(CC2)NC(=O)[C@H](Cc2cc(Cl)ccc2Cl)N(C)C1=O	NCI-H446	Vi-Cell counting	41.1 nM, 5 days, added: Myt1 inhibitor 1000 nM	baseline: DMSO	cell growth	34.9% and 22.1%

For quick reference, copied from above (block 3):
target	test	remaining binding
PIK3C2G (Homo sapiens, UniProt O75747)	cell-free assay	100%
PRKAA1 (Homo sapiens, UniProt Q13131)	cell-free assay	100%
